Measured values collected from several papers.
Protocols differ between the studies behind these lines. Several values in a cell are separate wells, animals, samples, runs or records. Numbers after ± are the reported error.

O=C(C[Se]C(=O)c1cccs1)Nc1cccc(C(F)(F)F)c1
CC50 (NCI60 CNS subpanel; NCI60 five-dose screen): 6.1 µM

CC(C)(C)C(=O)OCOP(=O)(OCOC(=O)C(C)(C)C)C1CCCN(O)C1=O (stereo not drawn)
TGI (SW-620): 42.6 µM

CC1CCC2C(C)C(OC(=O)CCC(=O)N3CCC(Nc4ccc(S(=O)(=O)NC(=O)c5ccc(N6CCN(CC7=C(c8ccc(Cl)cc8)CC(C)(C)CC7)CC6)cc5Oc5cnc6[nH]ccc6c5)cc4[N+](=O)[O-])CC3)OC3OC4(C)CCC1C32OO4 (stereo not drawn)
late apoptotic cells (KCL-22; annexin V/PI flow cytometry, item: annexin V+/PI+; 3.2 µM, 24 h): 12.9%

CC(C)CC(O)(CC(C)C)c1cn(C(=O)N2CCCC2)nn1
protein level (mouse T-cells; SILAC proteomics, item: TPI1; 1 nM, 6 h, unit not given; reference: DMSO): 1.12

CC(C)C[C@H](NC(=O)[C@H](CCC(=O)O)NC(=O)[C@@H](NC(=O)CN)[C@@H](C)O)C(=O)N1CCC[C@H]1C(=O)N[C@@H](CO)C(=O)N1CCC[C@H]1C(=O)N1CCC[C@H]1C(=O)N[C@@H](CO)C(=O)N[C@H](C(=O)N[C@@H](Cc1c[nH]c2ccccc12)C(=O)N[C@@H](Cc1ccccc1)C(=O)N[C@@H](CCC(=O)O)C(=O)N[C@@H](C)C(=O)N[C@@H](CCC(=O)O)C(=O)N[C@@H](Cc1ccccc1)C(=O)O)C(C)C
viability (HepG2; MTT; 30 µg/mL, 24 h): 97.6 ± 2.02%

CC(C)C[C@H](NC(=O)[C@H](CC(=O)O)NC(=O)CNC(=O)[C@@H](N)CCCNC(=N)N)C(=O)N[C@@H](C)C(=O)N[C@H](C(=O)N[C@@H](CC(C)C)C(=O)N[C@@H](CCCNC(=N)N)C(=O)N[C@@H](CCC(N)=O)C(=O)N[C@@H](CC(C)C)C(=O)N[C@@H](C)C(=O)N[C@@H](CCC(N)=O)C(=O)N[C@@H](CCC(=O)O)C(=O)N[C@@H](CC(=O)O)C(=O)NCC(=O)N[C@H](C(=O)N[C@H](C(=O)NCC(=O)N[C@H](C(=O)N[C@@H](CCCNC(=N)N)C(=O)NCCOCCOCCOCCOCCOCCOCCOCCOCCOCCOCCOCCOCCC(=O)N[C@@H](CS)C(N)=O)C(C)C)C(C)C)C(C)C)[C@@H](C)O
selectivity ratio (MiaPaCa pancreatic cancer; cell binding, phage binding, item: output/input phage; 10 min, 37 °C; reference: control phage): 1.6 ± 1

O=C(C[Se]C(=O)c1cc2ccccc2[nH]1)Nc1cccc(C(F)(F)F)c1
CC50 (NCI60 colon subpanel; NCI60 five-dose screen): 16.2 µM

Cc1cc(Oc2nc(N3CC[C@@H](c4ccncc4)C3)ncc2F)[nH]n1
IC50 (ASPC1; cell proliferation; pancreas cancer): 43.7 µM

CC(C)C[C@H](NC(=O)[C@H](CCC(=O)O)NC(=O)[C@@H](N)Cc1ccccc1)C(=O)N[C@@H](CCC(=O)O)C(=O)N[C@@H](CCCNC(=N)N)C(=O)N[C@@H](CCCNC(=N)N)C(=O)N[C@@H](Cc1ccccc1)C(=O)N[C@@H](CCCCN)C(=O)N[C@@H](CCC(N)=O)C(=O)N[C@@H](CCC(N)=O)C(=O)O
invasion (HCT-116; transwell; concentration not given): 102% and 85.6% and 101%

A few entries again:
CC(C)C[C@H](NC(=O)[C@H](CCC(=O)O)NC(=O)[C@@H](NC(=O)CN)[C@@H](C)O)C(=O)N1CCC[C@H]1C(=O)N[C@@H](CO)C(=O)N1CCC[C@H]1C(=O)N1CCC[C@H]1C(=O)N[C@@H](CO)C(=O)N[C@H](C(=O)N[C@@H](Cc1c[nH]c2ccccc12)C(=O)N[C@@H](Cc1ccccc1)C(=O)N[C@@H](CCC(=O)O)C(=O)N[C@@H](C)C(=O)N[C@@H](CCC(=O)O)C(=O)N[C@@H](Cc1ccccc1)C(=O)O)C(C)C
viability (HepG2; MTT; 30 µg/mL, 24 h): 97.6 ± 2.02%
